Results collected from several papers.
Each line is one published result; not all experiments were run side by side. Numbers after ± are the reported error.

| Compound | target or system | test | test system | conditions | scale | endpoint | result |
| --- | --- | --- | --- | --- | --- | --- | --- |
| COCCN(CCOC)N=O | Escherichia coli | mutagenicity, Ames plate incorporation | WP2 uvrA pKM101 | 500 µg/plate, 3 d, without S9, methanol | – | revertant colonies per plate | 145 ± 6 |
| Oc1ccc(C2(c3ccc(O)cc3)c3ccccc3-c3ccccc32)cc1 | HepG2 spheroids, dissociated | annexin V-FITC/PI flow cytometry | – | 1 µM, 96 h | – | early apoptotic cells | 6.76 ± 5.93% |
| Cc1cc(C(=O)NC(C)(C)COc2cccc3c2C(N)=NS(=O)(=O)N3)cc(C)n1 | Salmonella typhimurium | Ames test, confirmatory | TA1535 | 333 µg/plate, together with: rat liver S9 | baseline: solvent control | revertant ratio | 0.7 |
| CNC(=O)c1c(N(C)N=O)ncn1C | Escherichia coli | mutagenicity, Ames plate incorporation | WP2 uvrA pKM101 | 150 µg/plate, without S9, methanol | – | revertant colonies per plate | 129 ± 12 |
| O=[N+]([O-])c1ccc(N2CCC(NCCC(O)c3ccc(F)c4ccccc34)CC2)c(C(F)(F)F)c1 (centres unmarked) | Salmonella typhimurium | SOS response, SOS/umu test | TA1535/pSK1002, TGA medium | 7.63e-06 mg/mL, 4 h, without S9 | baseline: untreated | induction factor | 0.6 |
| O=c1ccc2ccccc2o1 | NHEK | oxygen consumption rate, Seahorse | – | concentration not given, 24 h | – | chance response | 52.9% |
| CCN(CC)C(=O)[C@@H]1C=C2c3cccc4[nH]cc(c34)C[C@H]2N(C)C1 | – | – | human, plasma | dose not given, after placebo pretreatment | – | AUC | 15 ng·h/mL |
| O=C1c2c(O)c(=O)ccn2N([C@@H]2c3ccccc3SCc3c2ccc(F)c3F)[C@@H]2COCCN12 | – | – | BALB/c mice, plasma | oral, 50 mg/kg baloxavir marboxil, 0.5 h | – | plasma concentration | 216 ng/mL |
| Cc1ncc(OC[C@@]2(c3cccc(F)c3)C[C@H]2C(=O)Nc2ccc(F)cn2)c(C)n1 | MDCK | – | – | 1 µM, 90 min, pH 6.5 apical, 7.4 basolateral, apical to basolateral | – | mass recovery | 103 ± 7% |
| CN(CC(C)(C)C)N=O | Escherichia coli | mutagenicity, Ames plate incorporation | WP2 uvrA pKM101 | 500 µg/plate, without S9, methanol | – | revertant colonies per plate | 147 ± 10 |
| CC(C)CC(=O)OC[C@H]1O[C@@](C#N)(c2ccc3c(N)ncnn23)[C@H](O)[C@@H]1O | Caco-2 | – | – | 0.9 µM, 2 h | – | efflux ratio | 2.88 |

Repeated from above:
| Compound | target or system | test | test system | conditions | scale | endpoint | result |
| --- | --- | --- | --- | --- | --- | --- | --- |
| CCN(CC)C(=O)[C@@H]1C=C2c3cccc4[nH]cc(c34)C[C@H]2N(C)C1 | – | – | human, plasma | dose not given, after placebo pretreatment | – | AUC | 15 ng·h/mL |
